Measured values collected from several papers.
Numbered parts are unrelated; each lists some results of a single study.

Series 1
Target: Ras GTPase-activating protein-binding protein 1, RRM domain (G3BP1, Homo sapiens, UniProt Q13283)
Chain of UniProt Q13283 (whole entry, looked up): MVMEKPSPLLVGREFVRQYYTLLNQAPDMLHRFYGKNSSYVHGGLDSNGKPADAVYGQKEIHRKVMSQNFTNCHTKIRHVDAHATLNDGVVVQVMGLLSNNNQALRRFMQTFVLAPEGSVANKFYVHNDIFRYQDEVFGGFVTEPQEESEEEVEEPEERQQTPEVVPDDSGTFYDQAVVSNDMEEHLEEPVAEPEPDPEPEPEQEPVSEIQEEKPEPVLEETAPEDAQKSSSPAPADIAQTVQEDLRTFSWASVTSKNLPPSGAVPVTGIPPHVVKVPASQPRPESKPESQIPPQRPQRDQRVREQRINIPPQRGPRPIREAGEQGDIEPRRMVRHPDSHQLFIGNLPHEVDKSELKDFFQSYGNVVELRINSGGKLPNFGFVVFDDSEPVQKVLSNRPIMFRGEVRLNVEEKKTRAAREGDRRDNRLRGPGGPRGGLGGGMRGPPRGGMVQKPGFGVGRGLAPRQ
Technique: RNA Bind-n-Seq
Molecule type: RNA
Sample: in vitro
Concentration: 1 µM
Setting: whole 134-nt RNA, ends assumed
Added: 150 mM KCl
Baseline: input library
Reading: higher = stronger binding
All sequences stand within: GGGAGUUCUACAGUCCGACGAUC … UGGAAUUCUCGGGUGUCAAGG
| Sequence | log2 enrichment |
| --- | --- |
| CACAGACAACACGCACCCACACAGACACAGAGGGAAGGGGUUGGGAUGGGGACAGGGUGCACAGCAGGGCGGGCUAGGACCCCAGCCCCU | -0.475 |
| ACCAUGAAAGUGGGCAUCUUUGGGAAGUGGGGCAAGGGGGGGAUAGGGAGGGGGGUAACACUUUGGGAACAGGUGGUCCCAGGUCGUUUC | -0.223 |
| CAAGUCCUGUGCUACACAUCGUAUGUACCGAAUCGGGGCCGGGCCGGGGCCGGGGAAAGUAUUAUGUUACGCCGUUCGGAUCUGCACUUC | -1.16 |
| GCAGGAAGUAAAAACAAAUGGAAAUGCUUCGGAUAGUGGCAGGGGUGGGGGUUGCUAAGGAAAGGGUGGGAUCGGAGUGGGUAAAGAGUU | 0.866 |
| AGUCCUGUGCUACACAUCGUAUGUACCGAAUCGGGGUUUUUGGUUUUUGGUUUUUGGGAAAGUAUUAUGUUACGCCGUUCGGAUCUGCAC | -0.273 |
| UCCUGUGCUACACAUCGUAUGUACCGAAUCGGUUUUUUGGGGUUUUUUGGGUUUUUUGGGAAAGUAUUAUGUUACGCCGUUCGGAUCUGC | -0.0788 |
| CUCAAGUCCUGUGCUACACAUCGUAUGUACCGAAUCGGAGGAAAAAGGUUUGGAAAGUAUUAUGUUACGCCGUUCGGAUCUGCACUUCCA | -0.189 |
| AGUCCUGUGCUACACAUCGUAUGUACCGAAUCGGUUUUUUUGGUUUUUUUGGAAAGGAAAGUAUUAUGUUACGCCGUUCGGAUCUGCACU | -0.288 |
| CACAGACAACACGCACCGACACAGACACAGAGGGAAGGGGUUGGGAUGGGGACAGGGUGCACAGCAGGGCGGGGUAGGACCCCAGCCCCU | -0.032 |

Series 2
Target: Prothrombin, mature alpha-thrombin (F2, Homo sapiens, UniProt P00734)
Technique: aptamer microarray, sandwich
Molecule type: DNA with 2'F-ANA
Sample: in vitro
Concentration: 200 nM
Setting: whole 15-mer aptamer, many near background
Added: Cy3 exosite-II aptamer, 400 nM
Reading: higher = stronger binding
Sequence: GGTTGGTGTGGTTGG
| Modification | mean fluorescence intensity [a.u.] |
| --- | --- |
| 2'F-ANA at 1 3 5 6 8 9 11 12 | 123 |
| 2'F-ANA at 2 3 5 7 8 9 11 15 | 94.8 |
| 2'F-ANA at 2 3 4 7 10 14 | 208 |
| 2'F-ANA at 1 5 9 11 12 13 14 | 45.8 |
| 2'F-ANA at 2 5 6 7 10 11 14 | 46.1 |
| 2'F-ANA at 1 2 3 5 7 8 11 14 15 | 48.7 |
| 2'F-ANA at 1 3 5 6 7 10 13 14 | 48.6 |
| 2'F-ANA at 1 2 4 7 8 9 11 14 | 50.5 |
| 2'F-ANA at 1 3 5 6 7 9 10 11 12 13 15 | 52.9 |
| 2'F-ANA at 1 3 4 5 6 7 8 11 | 82.8 |
| 2'F-ANA at 1 2 7 8 10 12 13 14 | 51.2 |
| 2'F-ANA at 3 4 5 6 12 13 14 | 60 |
| 2'F-ANA at 2 7 11 12 15 | 691 |
| 2'F-ANA at 5 6 8 9 10 11 14 15 | 46.9 |
| 2'F-ANA at 1 2 8 9 10 11 12 13 | 59.3 |
| 2'F-ANA at 2 3 7 10 11 12 13 | 445 |
| 2'F-ANA at 4 6 7 9 11 12 14 | 96.6 |
| 2'F-ANA at 1 2 3 4 5 7 9 | 77 |
| 2'F-ANA at 5 9 12 14 15 | 49.7 |
| 2'F-ANA at 2 3 5 6 7 8 10 11 13 15 | 59.8 |
| 2'F-ANA at 2 4 6 7 9 11 12 14 15 | 94.6 |
| 2'F-ANA at 3 6 11 12 | 1170 |

Series 3
Target: RING finger protein unkempt homolog, zinc fingers 1-6, GST-SBP tag (UNK, Homo sapiens, UniProt Q9C0B0, residues 30-357)
Chain of UniProt Q9C0B0 (30-357, looked up): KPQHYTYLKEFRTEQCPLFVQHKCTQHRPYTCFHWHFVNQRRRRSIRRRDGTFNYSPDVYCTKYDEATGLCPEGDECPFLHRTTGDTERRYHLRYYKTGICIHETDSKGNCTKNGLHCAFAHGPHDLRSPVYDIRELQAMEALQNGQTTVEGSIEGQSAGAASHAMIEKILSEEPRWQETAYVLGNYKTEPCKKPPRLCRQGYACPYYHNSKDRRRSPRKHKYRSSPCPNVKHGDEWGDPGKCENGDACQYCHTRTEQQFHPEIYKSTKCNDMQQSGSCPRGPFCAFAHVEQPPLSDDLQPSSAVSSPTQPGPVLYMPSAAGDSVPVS
Technique: RNA Bind-n-Seq
Molecule type: RNA
Sample: in vitro
Concentration: not given
Setting: RNA with constant flanks, human and mouse sites, ends assumed
Baseline: input RNA pool
Reading: higher = stronger binding
All sequences stand within: GGGAGUUCUACAGUCCGACGAUC … CAACAGAGGAUUGAGCAUCA
| Sequence | bound/input enrichment [ratio] |
| --- | --- |
| ACUGUGGCAUAUACUGAAAAGAAAAUGACCAGUGGCAAGAUCAAGAAAUUUAUUCAGGAUAGCAUUUUUGGUCUCUGUCCUCAUAUGACGGAAGAUAAUAAAGAUUUGAUACAAGGCAAG | 0.966 |
| CUGUUCUCCUAUGGUUGAUAAAGCUUUAAAUACUAUUUAAAGUGGUUCUGGUCUGUACUUACUAGCACUUCCCUGAACAGUCUCAAAAUAGCCUAAACAUAAGAAAACAAUCCUGCAAAG | 0.361 |
| UAUGAUGGAGAGGAGUAUGAUGUGGAGGCACAUGAACAAGGACAAGGGGACAUCCCUACAUUUUAUACCUAUGAAGAAGGACUAUCCCAUUUAACAGCGGAAGGGCAAGCCACGUUGGAG | 0.581 |
| UAUGACAGGGUUUCCAGAAAGGAAGCAAAGCCACAGAUUUGUCAACUGUCAGAGAGUUCAGAUUCUUCAGAUUCUGAAAGCGACUCAGAGAGUGAACCACAACAAGUUUCUGGCUACCAC | 0.0711 |
| AAAGGCAGCUGUGUUAUUUCAUAAAUAACUUGGGAGAAACUGCAUCCUAAGUGGAAGAACUAGUUUGUUUUAGUUUUCCCAGAUAAAACCAACAUGCUUUUUAAGGAAGGAAGAAUGAAA | 0.209 |
| GCUGCCCUUUCUGUUCGUAAUCUUUCACCUUAUGUUUCCAAUGAACUGUUGGAAGAAGCCUUUAGCCAAUUUGGUCCUAUUGAAAGGGCUGUUGUAAUAGUGGAUGAUCGUGGAAGAUCU | 0.18 |

Series 4
Target: Histone acetyltransferase KAT6A, both winged helices, GST fusion (KAT6A, Homo sapiens, UniProt Q92794, residues 1-181)
Technique: protein binding microarray
Molecule type: double-stranded DNA, one strand shown
Sample: in vitro
Concentration: not given
Setting: 8-mer, flanks averaged, mean of 2 arrays, mostly near background
Baseline: not given
Reading: higher = stronger binding
Construct (chain): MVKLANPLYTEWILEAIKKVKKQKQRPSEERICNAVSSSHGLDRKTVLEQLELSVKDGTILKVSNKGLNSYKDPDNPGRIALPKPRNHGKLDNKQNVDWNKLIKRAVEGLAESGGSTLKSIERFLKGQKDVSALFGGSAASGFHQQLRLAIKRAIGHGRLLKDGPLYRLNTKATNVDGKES
| Sequence | E-score |
| --- | --- |
| CCTGCCTC | -0.277 |
| CAGATACC | -0.0684 |
| AGAGTCGC | 0.00494 |
| CAAATGAG | -0.255 |
| CAGTATGA | -0.173 |
| CATTATGC | 0.0139 |
| GCATAAGC | 0.0665 |
| CCGTCTCC | 0.253 |
| ATACAGGC | -0.144 |
| TACGCTCA | 0.119 |
| CGTCCATA | 0.0132 |
| AAATCGGC | 0.241 |
| TCAACTGA | -0.178 |
| GCGACGCC | 0.308 |
| TCAGAAAA | -0.341 |
| GCGTTGGA | 0.0803 |
| GGAACTTA | 0.0152 |
| GAGAAATC | -0.0404 |
